Results from different studies.
Parts stem from different laboratories: compare values within a part only.

Series 1 — method: protein binding microarray; molecule type: double-stranded DNA, one strand shown; sample: in vitro; concentration: not given; relative to: not given; direction: higher = stronger binding
Target: Histone acetyltransferase KAT6A, both winged helices, GST fusion (KAT6A, Homo sapiens, UniProt Q92794, residues 1-181)
Setting: 8-mer, flanks averaged, mean of 2 arrays, mostly near background
Construct (chain): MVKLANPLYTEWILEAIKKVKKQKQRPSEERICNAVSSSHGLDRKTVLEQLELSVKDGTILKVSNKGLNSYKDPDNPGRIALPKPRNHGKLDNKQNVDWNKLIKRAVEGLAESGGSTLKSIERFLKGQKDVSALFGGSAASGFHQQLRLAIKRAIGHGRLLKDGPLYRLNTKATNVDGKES
| Sequence | E-score |
| --- | --- |
| GGGGCGAC | -0.0053 |
| ACTAGTTA | -0.079 |
| CGCGATTA | 0.134 |
| AGAAAGCC | -0.1 |
| CAGAAAAG | -0.126 |
| AGATGGAT | -0.125 |
| CCAGGACA | -0.0809 |
| AAAACCAA | 0.0312 |
| CAACCGGC | 0.229 |
| AAAGACCG | 0.157 |
| ACTGTGCA | -0.0664 |
| ACGCTGCC | 0.074 |
| ACACTATC | -0.0113 |
| CGTTTTGA | 0.0346 |
| GGACGCCC | 0.0831 |
| AGCACATC | -0.0668 |
| ATGGAGCC | -0.179 |
| ATAAGCGG | 0.0903 |
| CTCAAGAA | -0.139 |
| ACGGAACG | 0.238 |
| ACTCATCA | -0.151 |
| TACGACTA | -0.103 |

Series 2 — method: RNA Bind-n-Seq; molecule type: RNA; sample: in vitro; concentration: 100 nM; relative to: input RNA pool; direction: higher = stronger binding
Target: RING finger protein unkempt homolog, zinc fingers 1-6, SBP tag (UNK, Homo sapiens, UniProt Q9C0B0, residues 30-357)
Chain of UniProt Q9C0B0 (30-357, looked up): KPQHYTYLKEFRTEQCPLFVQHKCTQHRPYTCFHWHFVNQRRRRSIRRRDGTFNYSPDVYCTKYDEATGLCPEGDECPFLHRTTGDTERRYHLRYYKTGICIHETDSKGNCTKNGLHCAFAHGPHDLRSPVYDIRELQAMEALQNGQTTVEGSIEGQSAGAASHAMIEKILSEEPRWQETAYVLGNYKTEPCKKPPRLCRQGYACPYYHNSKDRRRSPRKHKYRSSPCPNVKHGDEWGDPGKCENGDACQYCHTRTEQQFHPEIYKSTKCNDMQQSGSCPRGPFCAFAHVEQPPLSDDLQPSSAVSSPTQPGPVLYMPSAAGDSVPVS
Setting: RNA with constant flanks, vertebrate orthologous sites, ends assumed
| Sequence | bound/input enrichment |
| --- | --- |
| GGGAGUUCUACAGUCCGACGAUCGGGAGAUAUUGAAUAGUAUUAAACAUUUUCGUCUUCCUUUACCUUUUAUCCCCUAAUACCUAGUCUUUUUUAAAUUUCAGACUUCACUGCUCUUUGAAUUGAUAAUUCCAAUUUUCACAUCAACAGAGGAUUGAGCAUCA | 2.97 ratio |
| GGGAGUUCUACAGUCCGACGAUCAGCUUCUGGCGACAUUUGGCCUGGCCUUUCAGCGUAUGAUAACAGUCCAAGGUCACCCCAUAGUCCUUCUAUUGCCACCCCACCUAGUCAGAGCUCAUCUUGCUCUGAUGCCCCUCUGCUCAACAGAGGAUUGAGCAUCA | 0.728 ratio |
| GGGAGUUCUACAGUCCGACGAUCUUGUUUUUGUUUUGCACAUGACAGUGUGUGUAUUGAUCUGAGGAAGGAGGAGGGGCAUUGGCGCAGUUGGCCUCCAGUGCCCCCCACCCUCAACACCCCACCUGGUAUCUUUGCCACGUUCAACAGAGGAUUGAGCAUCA | 0.162 ratio |
| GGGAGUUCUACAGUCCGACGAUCUUUGUGGGGGUCGGGGGGUGGGGAGAAGAUGUAUGGAUGUUAUUGGCAUUUUUAAGUGUUCAGAGUUUUUUGGGGUUUUUUUUUUUCCUCCUGUUUUGUUUUUUCCCUUUAAUUGGAUGCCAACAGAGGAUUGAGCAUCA | 0.788 ratio |
| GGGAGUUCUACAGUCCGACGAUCCAGGGAGAAGAGUUCACAAACUCAAAGGAAAACUAUUAAGAGUUUCUAAUAGUUAAAAGCUAGGAAAGAUUAGGACAACUUUACAAAUGAGCAAUUAAAAAGAAAAAGAAAAAGGAUAUGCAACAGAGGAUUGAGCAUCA | 0.74 ratio |
| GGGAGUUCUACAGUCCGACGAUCAGGAAAUGCUGGCUGCAAACCCUCAGGAUCGUCCAGAUGCUUUUGAACUAGAACUCAGAUUAGUACAAAUUGCAUUUAAAGAUAGCAGCUGGGAGACGUGACACAUAUUAUUUGCAAAUACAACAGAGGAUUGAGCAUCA | 0.944 ratio |
| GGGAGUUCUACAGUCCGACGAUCACUCUAGUUCUUAACAACCGACACUCCUAAAAGAGUUAGAAAAAAGUUUACAACAUAAUCUAGUUUACAAAGAAGUCUUGUGCUAGAAUACUUUUUAAAAAGUAUUUUUGAAUACCAUUACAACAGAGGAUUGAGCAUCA | 0.629 ratio |
| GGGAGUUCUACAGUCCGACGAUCGAACUAAAGGAGUUAGCAUCUUUAUUUUUAUAUCAAAGAAAAAGGUUAUUUUGAAAUUAUUAGGAUUUUUACAUAACUCUGAAAUCUGUUGCUUUCGUAAACAAAUAGUUUGCUCUGAGGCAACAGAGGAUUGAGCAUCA | 0.348 ratio |

Series 3 — method: protein-binding microarray; molecule type: double-stranded DNA, one strand shown; sample: in vitro; concentration: not given; direction: higher = stronger binding
Target: Max-binding protein MNT, bHLH-zipper, MAX partner unstated (MNT, Homo sapiens, UniProt Q99583, residues 220-300)
Setting: k-mer, scored over probes, only values ≥0.25
Construct (chain): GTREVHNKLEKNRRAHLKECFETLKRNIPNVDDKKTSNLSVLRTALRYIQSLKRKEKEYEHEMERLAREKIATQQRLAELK
| Sequence | E-score |
| --- | --- |
| ACGCGCTA | 0.257 |
| CACGCGGC | 0.471 |
| GCGTGAGC | 0.289 |
| CGCCCCAA | 0.285 |
| CGTGTGGA | 0.296 |
| CAACATGG | 0.281 |
| CCGCCCAC | 0.305 |
| CACGTAGC | 0.272 |
| ATTCCATG | 0.273 |
| GGCATGCC | 0.381 |
| ACATGCCC | 0.368 |
| ACGCCACC | 0.32 |
| CATGTTTC | 0.318 |
| ATGCACGA | 0.332 |
| CATGGCCG | 0.304 |
| CGTGCTCC | 0.351 |
| AAGCGGGG | 0.256 |
| ACACACGA | 0.317 |
| GCGCGCAC | 0.266 |
| CGTGTTGC | 0.339 |
| ACGTGATG | 0.421 |
| CATATGGG | 0.27 |
| GCGTGAGA | 0.287 |
| CATGCAAG | 0.293 |
| ACGTGACA | 0.461 |

Series 4 — method: RNA Bind-n-Seq; molecule type: RNA; sample: in vitro; concentration: 200 nM; setting: whole 134-nt RNA, ends assumed; added: 150 mM KCl; relative to: input library; direction: higher = stronger binding
Target: Fragile X messenger ribonucleoprotein 1, C-terminal low-complexity region (Fmr1, Mus musculus, UniProt P35922)
| Sequence | log2 enrichment |
| --- | --- |
| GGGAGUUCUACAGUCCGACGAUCUCAAGUCCUGUGCUACACAUCGUAUGUACCGAAUCGGGGAAGGGGAAGGGAAGGAAAGUAUUAUGUUACGCCGUUCGGAUCUGCACUUCCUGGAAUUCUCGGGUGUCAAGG | 0.0404 |
| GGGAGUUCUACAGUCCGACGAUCCACAGACAGCACGCACCCACACAGACACAGAGGGAAGGGGUUGGGAUGGGGACAGGGUGCACAGCAGGGCGGGGUAGGACCCCAGCCCCUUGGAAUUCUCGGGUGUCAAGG | 1.23 |
| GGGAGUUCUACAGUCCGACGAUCGUCCUGUGCUACACAUCGUAUGUACCGAAUCGGGUUUUUGGGAAAAAAAGGGAAAGGGAAAGUAUUAUGUUACGCCGUUCGGAUCUGCACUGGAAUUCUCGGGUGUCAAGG | -0.447 |
| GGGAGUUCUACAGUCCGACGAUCUUUUAUUCUUCCAUCUUUUCCCACAGGUGGCAGCUGCCAACAAGAAGCAUUAGAACAAACCAUGCUGGGUUAAUAAAUUGCCUCAUUCGUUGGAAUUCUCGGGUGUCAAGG | -0.0822 |
| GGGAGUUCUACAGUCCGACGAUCCUGUGCUACACAUCGUAUGUACCGAAUCGGCCCCCCCGGGGCCCCCCCGGGCCCCCCCGGGGAAAGUAUUAUGUUACGCCGUUCGGAUCUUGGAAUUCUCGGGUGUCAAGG | -1.49 |
| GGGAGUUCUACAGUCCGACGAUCUGGGAGGUGGAUUUUGUUUAUUUUUUUAGCUCAUUUCCAGGGGUGGGAAUUUUUUUUUAAUAUAUGUCAUGAAUAAAGUUGUUUUUGAAAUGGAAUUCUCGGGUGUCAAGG | 0.191 |
| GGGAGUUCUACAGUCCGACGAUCGUGCUACACAUCGUAUGUACCGAAUCGGGGAAAAAAAGGGGUUUUUUUGGGGUUUUUUUGGGGAAAGUAUUAUGUUACGCCGUUCGGAUCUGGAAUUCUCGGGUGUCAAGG | 0.425 |
| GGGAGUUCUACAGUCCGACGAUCACCAUGCAGGUGGGCAUCUUUGGGCAGUGGGGCAAGGGGGGGAUAGGGAGGGGGGUAACACUUUGGGAACAGGUGGUCCCAGGUCGUUUCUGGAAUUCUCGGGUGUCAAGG | 0.864 |
| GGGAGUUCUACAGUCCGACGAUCCCUCAAGUCCUGUGCUACACAUCGUAUGUACCGAAUCGGCCGGCCGGCCGGGAAAGUAUUAUGUUACGCCGUUCGGAUCUGCACUUCCAGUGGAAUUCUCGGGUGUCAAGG | -0.345 |

Some of these lines once more (series 3):
| Sequence | E-score |
| --- | --- |
| ATTCCATG | 0.273 |
| GGCATGCC | 0.381 |
| GCGCGCAC | 0.266 |
| ACGCCACC | 0.32 |
| CATATGGG | 0.27 |
